Results collected from several papers.
Lines come from different studies, so protocols differ.
Organism: Pseudomonas aeruginosa

CC[C@H](C)[C@H](NC(=O)[C@H](CO)NC(=O)CNC(=O)[C@H](CCCCN)NC(=O)[C@@H](NC(=O)[C@H](CC(N)=O)NC(=O)[C@H](Cc1ccccc1)NC(=O)[C@H](CC(N)=O)NC(=O)[C@@H](NC(=O)[C@H](CCCNC(=N)N)NC(=O)[C@@H]1CCCN1C(=O)[C@H](CCCNC(=N)N)NC(=O)[C@@H](NC(=O)[C@H](CCCNC(=N)N)NC(=O)[C@H](CCCNC(=N)N)NC(=O)[C@@H](NC(=O)[C@H](CCCNC(=N)N)NC(=O)[C@H](CO)NC(=O)[C@H](CC(C)C)NC(=O)[C@H](Cc1ccccc1)NC(=O)[C@H](CCCNC(=N)N)NC(=O)CNC(=O)[C@H](Cc1ccccc1)NC(=O)[C@H](CCCNC(=N)N)NC(=O)CNC(=O)[C@H](CCCNC(=N)N)NC(=O)[C@H](CCC(N)=O)NC(=O)[C@@H](NC(=O)[C@@H](N)CC(C)C)C(C)C)[C@@H](C)CC)[C@@H](C)CC)[C@@H](C)CC)[C@@H](C)CC)C(=O)O  MIC (broth microdilution; ATCC 27853, Mueller-Hinton broth; 16 to 20 h, 37 °C): 9.97 µM
CC[C@H](C)[C@H](NC(=O)CNC(=O)[C@H](CC(=O)O)NC(=O)[C@H](CCCNC(=N)N)NC(=O)[C@@H](NC(=O)[C@H](CC(N)=O)NC(=O)[C@H](CCCNC(=N)N)NC(=O)CNC(=O)[C@@H](NC(=O)[C@H](CCCCN)NC(=O)[C@H](CCC(=O)O)NC(=O)[C@@H](NC(=O)[C@H](CCCCN)NC(=O)[C@H](CCC(=O)O)NC(=O)[C@H](Cc1ccccc1)NC(=O)[C@@H](NC(=O)[C@H](CCCCN)NC(=O)[C@H](Cc1c[nH]c2ccccc12)NC(=O)[C@@H](N)CCCNC(=N)N)[C@@H](C)CC)[C@@H](C)CC)C(C)C)C(C)C)C(=O)N[C@H](C(=O)N[C@@H](CCCCN)C(=O)N[C@@H](C)C(=O)NCC(=O)N1CCC[C@H]1C(=O)N[C@@H](C)C(=O)N[C@H](C(=O)N[C@@H](C)C(=O)N[C@H](C(=O)N[C@H](C(=O)NCC(=O)N[C@@H](CCC(N)=O)C(=O)N[C@@H](C)C(=O)N[C@@H](C)C(=O)N[C@H](C(=O)N[C@H](C(=O)N[C@H](C(=O)N[C@@H](CCCCN)C(N)=O)C(C)C)C(C)C)[C@@H](C)O)C(C)C)C(C)C)C(C)C)[C@@H](C)CC  MIC (KCCM 11328, Mueller-Hinton broth; 16 h, 37 °C; growth inhibition over 99%): > 64 µM
CC1(C)S[C@@H]2[C@H](NC(=O)[C@H](N)c3ccccc3)C(=O)N2[C@H]1C(=O)O  MIC (pqsE mutant): 200 µg/mL
CC[C@H](C)[C@H](NC(=O)CNC(=O)[C@H](CC(=O)O)NC(=O)[C@H](CCCNC(=N)N)NC(=O)[C@@H](NC(=O)[C@H](CC(N)=O)NC(=O)[C@H](CCC(=O)O)NC(=O)CNC(=O)[C@@H](NC(=O)[C@H](CCCCN)NC(=O)[C@H](CCC(=O)O)NC(=O)[C@@H](NC(=O)[C@H](CCCCN)NC(=O)[C@H](CCCCN)NC(=O)[C@H](Cc1ccccc1)NC(=O)[C@@H](NC(=O)[C@H](CCCCN)NC(=O)[C@H](Cc1c[nH]c2ccccc12)NC(=O)[C@@H](N)CCCNC(=N)N)[C@@H](C)CC)[C@@H](C)CC)C(C)C)C(C)C)C(=O)N[C@H](C(=O)N[C@@H](CCCCN)C(=O)N[C@@H](C)C(=O)NCC(=O)N1CCC[C@H]1C(=O)N[C@@H](C)C(=O)N[C@H](C(=O)N[C@@H](C)C(=O)N[C@H](C(=O)N[C@H](C(=O)NCC(=O)N[C@@H](CCC(N)=O)C(=O)N[C@@H](C)C(=O)N[C@@H](C)C(=O)N[C@H](C(=O)N[C@H](C(=O)N[C@H](C(=O)N[C@@H](CCCCN)C(N)=O)C(C)C)C(C)C)[C@@H](C)O)C(C)C)C(C)C)C(C)C)[C@@H](C)CC  MIC (KCCM 11328, Mueller-Hinton broth; 16 h, 37 °C; growth inhibition over 99%): 32 µM
CC[C@H](C)[C@H](N)C(=O)N[C@@H](CC(C)C)C(=O)NCC(=O)N[C@H](CCCNC(=N)N)C(=O)N[C@H](C(=O)N[C@H](C(=O)N[C@@H](CCCCN)C(=O)NCC(=O)N[C@H](C(=O)N[C@@H](CCCCN)C(=O)N[C@@H](CC(=O)O)C(=O)N[C@H](C(=O)N[C@@H](CC(C)C)C(N)=O)[C@@H](C)CC)[C@@H](C)CC)C(C)C)[C@@H](C)CC  MIC (broth microdilution; ATCC BAA-427, Mueller-Hinton broth; 16 h, 37 °C): 100 µM
CC(C)CC1NC(=O)C(C(=O)NC(C(=O)NC2C(=O)N3C2SC(C)(C)C3C(=O)O)c2ccccc2)=C1O (centres unmarked)  MIC (pvdA mutant): 25 µg/mL
CC[C@H](C)[C@H](NC(=O)[C@H](CCCCN)NC(=O)[C@H](Cc1c[nH]c2ccccc12)NC(=O)[C@H](Cc1c[nH]c2ccccc12)NC(=O)[C@H](CCCCN)NC(=O)[C@H](CCCCN)NC(=O)[C@H](CCCCN)NC(=O)[C@H](Cc1c[nH]c2ccccc12)NC(=O)[C@H](CCCCN)NC(=O)[C@H](CCCCN)NC(=O)[C@H](Cc1c[nH]c2ccccc12)NC(=O)[C@H](CCCCN)NC(=O)[C@H](CCCCN)NC(=O)[C@@H](NC(=O)[C@@H](NC(=O)[C@H](CCCCN)NC(=O)[C@@H](N)CCCNC(=N)N)[C@@H](C)CC)[C@@H](C)CC)C(=O)N[C@@H](Cc1c[nH]c2ccccc12)C(=O)N[C@@H](Cc1c[nH]c2ccccc12)C(=O)N[C@@H](CCCCN)C(=O)NCCOCCOCC(N)=O  MIC (broth microdilution; 01): 2.2 µg/mL
CC[C@H](C)[C@H](N)C(=O)N[C@@H](CO)C(=O)N[C@@H](Cc1ccccc1)C(=O)N[C@@H](CC(C)C)C(=O)NCC(=O)N[C@@H](CO)C(=O)N[C@@H](CCCCN)C(=O)N[C@H](C(=O)N[C@H](C(=O)N[C@H](C(=O)N[C@@H](CC(C)C)C(=O)N[C@@H](CC(C)C)C(=O)N[C@@H](CCCCN)C(=O)N[C@@H](CCCNC(=N)N)C(=O)N[C@@H](CCCNC(=N)N)C(=O)N[C@@H](CCCCN)C(=O)N[C@@H](CCCNC(=N)N)C(=O)N[C@@H](CCCCN)C(=O)N[C@@H](CCCNC(=N)N)C(=O)N[C@@H](CCCCN)C(N)=O)C(C)C)C(C)C)C(C)C  MIC (broth microdilution; ATCC 27853; highest value reported): 32 µM
CC1(C)SC2C(NC(=O)C(NC(=O)C3=C(O)C(Cc4ccccc4)NC3=O)c3ccccc3)C(=O)N2C1C(=O)O (centres unmarked)  MIC (broth microdilution; TonB-dependent receptor mutant; PA two-allele library): 12.5 µg/mL
N=C(N)NCCC[C@H](NC(=O)[C@H](Cc1c[nH]c2ccccc12)NC(=O)[C@H](CCCNC(=N)N)NC(=O)[C@@H](N)Cc1c[nH]c2ccccc12)C(=O)N[C@@H](Cc1ccccc1)C(=O)N[C@@H](CCC(N)=O)C(=O)N[C@@H](Cc1ccccc1)C(=O)N[C@@H](CCC(N)=O)C(=O)N[C@@H](Cc1ccccc1)C(=O)N[C@@H](CCCCN)C(N)=O  MIC (broth microdilution, optical density): 280 µM
C[C@H]1COc2c(N3CCN(C)CC3)c(F)cc3c(=O)c(C(=O)O)cn1c23  MIC (1188712, multidrug-resistant): > 8 µg/mL
CC(C)(C)Oc1ccc(CC2NC(=O)C(C(=O)NC(C(=O)NC3C(=O)N4C3SC(C)(C)C4C(=O)O)c3ccccc3)=C2O)cc1 (centres unmarked)  MIC (fpvB mutant): 25 µg/mL
NC[C@H]1O[C@H](O[C@H]2[C@H](O)[C@@H](O[C@H]3O[C@H](CO)[C@@H](O)[C@H](N)[C@H]3O)[C@H](N)C[C@@H]2N)[C@H](N)C[C@@H]1O  MIC (expressing H6-MBP-CSP2 or R169A mutant; 24 h, together with: IPTG 1 mM): 2 µg/mL
CC[C@H](C)[C@H](NC(=O)[C@H](CC(C)C)NC(=O)[C@H](CCCCN)NC(=O)[C@@H](NC(=O)[C@H](C)NC(=O)[C@H](CCC(=O)O)NC(=O)[C@H](Cc1c[nH]cn1)NC(=O)[C@@H](NC(=O)[C@H](CCCCN)NC(=O)[C@H](CCC(N)=O)NC(=O)[C@H](Cc1ccccc1)NC(=O)[C@@H](N)C(C)C)[C@@H](C)CC)[C@@H](C)CC)C(N)=O  MIC (CLSI broth microdilution; ATCC 27853; 18 h, 37 °C): > 128 µM
CC[C@H](C)[C@H](NC(=O)CN)C(=O)NCC(=O)N[C@@H](C)C(=O)N[C@H](C(=O)N[C@@H](CC(C)C)C(=O)N[C@@H](CCCCN)C(=O)N[C@H](C(=O)N[C@@H](CC(C)C)C(=O)N[C@H](C(=O)N[C@H](C(=O)NCC(=O)N[C@@H](CC(C)C)C(=O)N1CCC[C@H]1C(=O)N[C@@H](C)C(=O)N[C@@H](CC(C)C)C(=O)N[C@H](C(=O)N[C@@H](CO)C(=O)N[C@@H](Cc1c[nH]c2ccccc12)C(=O)N[C@H](C(=O)N[C@@H](CCCCN)C(=O)N[C@@H](CCCNC(=N)N)C(=O)N[C@@H](CCCCN)C(=O)N[C@@H](CCCNC(=N)N)C(=O)N[C@@H](CCC(N)=O)C(=O)N[C@@H](CCC(N)=O)C(N)=O)[C@@H](C)CC)[C@@H](C)CC)[C@@H](C)O)[C@@H](C)O)C(C)C)C(C)C  MIC (broth microdilution; 27853, Mueller-Hinton broth; 24 h, 37 °C, lowest concentration, 95% inhibition, together with: BSA): 4 µM
CC1(C)S[C@@H]2[C@H](NC(=O)C(C(=O)O)c3ccccc3)C(=O)N2[C@H]1C(=O)O (some centres unmarked)  MIC (fpvB mutant): 25 µg/mL
CC[C@H](C)[C@H](NC(=O)[C@H](CCCCN)NC(=O)[C@H](CCCCN)NC(=O)CNC(=O)[C@H](CCCCN)NC(=O)[C@H](CC(C)C)NC(=O)[C@H](CCCCN)NC(=O)[C@H](CCCNC(=N)N)NC(=O)[C@@H](NC(=O)[C@H](CC(C)C)NC(=O)[C@H](CCCNC(=N)N)NC(=O)[C@@H](N)CCCNC(=N)N)[C@@H](C)CC)C(=O)N[C@@H](Cc1ccc(O)cc1)C(=O)N[C@@H](CC(C)C)C(=O)N[C@@H](Cc1ccc(O)cc1)C(=O)N[C@@H](Cc1ccccc1)C(=O)N[C@@H](CCCCN)C(=O)N[C@@H](CC(C)C)C(=O)N[C@@H](CCC(N)=O)C(=O)N[C@@H](CC(C)C)C(=O)N[C@@H](CC(C)C)C(=O)N[C@@H](CCCCN)C(=O)N[C@@H](CCCCN)C(N)=O  MIC (KCTC 1637, Mueller-Hinton broth; 24 h): 8 µM
CC[C@H](C)[C@H](NC(=O)[C@H](CCCCN)NC(=O)[C@H](CCCCN)NC(=O)[C@H](Cc1ccccc1)NC(=O)[C@@H](NC(=O)[C@@H](NC(=O)[C@H](CCCNC(=N)N)NC(=O)[C@H](Cc1ccccc1)NC(=O)[C@@H](NC(=O)[C@H](CCCCN)NC(=O)[C@H](CCCCN)NC(=O)[C@@H](N)CCSC)[C@@H](C)CC)C(C)C)[C@@H](C)CC)C(=O)N[C@@H](CC(C)C)C(=O)N[C@@H](CCCCN)C(=O)N[C@@H](CCCNC(=N)N)C(=O)N[C@@H](CC(C)C)C(=O)N[C@H](C(=O)N[C@H](C(=O)O)C(C)C)[C@@H](C)CC  MIC (CMCC 10104; 16 to 18 h): 32 µg/mL
CC1(C)SC2C(NC(=O)C(NC(=O)C3=C(O)C(Cc4ccc([N+](=O)[O-])cc4)NC3=O)c3ccccc3)C(=O)N2C1C(=O)O (centres unmarked)  MIC (pvdS mutant): 25 µg/mL
CC[C@@H](C)[C@@H](NC(=O)[C@@H](CC(C)C)NC(=O)[C@H](NC(=O)[C@H](NC(=O)[C@H](NC(=O)[C@@H](CCCNC(=N)N)NC(=O)[C@@H](CCCNC(=N)N)NC(=O)[C@@H](CCCNC(=N)N)NC(=O)[C@H](N)CCCNC(=N)N)C(C)C)[C@H](C)CC)[C@H](C)CC)C(=O)N[C@@H](C(=O)N[C@H](CC(C)C)C(=O)N[C@H](CCCNC(=N)N)C(=O)N[C@H](CCCNC(=N)N)C(=O)N[C@H](CCCNC(=N)N)C(=O)N[C@H](CCCNC(=N)N)C(=O)N[C@H](Cc1ccccc1)C(=O)N[C@H](CO)C(=O)N[C@H](C)C(=O)N[C@H](Cc1ccc(O)cc1)C(N)=O)C(C)C  MIC (broth microdilution; ATCC 27853; highest value reported): 8 µM

Excerpt of the above:
CC[C@@H](C)[C@@H](NC(=O)[C@@H](CC(C)C)NC(=O)[C@H](NC(=O)[C@H](NC(=O)[C@H](NC(=O)[C@@H](CCCNC(=N)N)NC(=O)[C@@H](CCCNC(=N)N)NC(=O)[C@@H](CCCNC(=N)N)NC(=O)[C@H](N)CCCNC(=N)N)C(C)C)[C@H](C)CC)[C@H](C)CC)C(=O)N[C@@H](C(=O)N[C@H](CC(C)C)C(=O)N[C@H](CCCNC(=N)N)C(=O)N[C@H](CCCNC(=N)N)C(=O)N[C@H](CCCNC(=N)N)C(=O)N[C@H](CCCNC(=N)N)C(=O)N[C@H](Cc1ccccc1)C(=O)N[C@H](CO)C(=O)N[C@H](C)C(=O)N[C@H](Cc1ccc(O)cc1)C(N)=O)C(C)C  MIC (broth microdilution; ATCC 27853; highest value reported): 8 µM
CC1(C)S[C@@H]2[C@H](NC(=O)C(C(=O)O)c3ccccc3)C(=O)N2[C@H]1C(=O)O (some centres unmarked)  MIC (fpvB mutant): 25 µg/mL
C[C@H]1COc2c(N3CCN(C)CC3)c(F)cc3c(=O)c(C(=O)O)cn1c23  MIC (1188712, multidrug-resistant): > 8 µg/mL
